Experimental data pooled from the literature.
Numbered parts are unrelated; each lists some results of a single study. Substitutions count along the parent as printed.

Block 1
Target: ABI1, truncated, D143A, DHFR fusion (Arabidopsis thaliana)
Method: DHFR PCA, deep sequencing
Matrix: yeast
Notes: methotrexate growth selection, single substitutions
Together with: (+)-ABA 0 µM
Relative to: wild-type fitted maximum
Reading: higher = stronger binding
Starting sequence: PYL1, truncated, DHFR fusion (Arabidopsis thaliana); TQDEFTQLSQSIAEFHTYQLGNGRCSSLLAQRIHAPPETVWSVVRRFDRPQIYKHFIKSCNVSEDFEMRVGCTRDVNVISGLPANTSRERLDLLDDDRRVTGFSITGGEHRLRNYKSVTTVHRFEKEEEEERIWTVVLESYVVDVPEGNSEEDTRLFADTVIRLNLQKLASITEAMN
Variant	relative binding score
M176H	7.47%
N177K	24.6%
E139Q	23.4%
Q31M	1.56%
G108C	3.5%
A35D	-0.0147%
L82M	39.3%
E89T	-7.1%
T17A	-0.219%
I12M	3.64%
V62R	0.438%

Block 2
Target: CCND1, cyclin fold, Cln2 fusion (human)
Method: yeast growth competition, sequencing
Matrix: yeast
Notes: strong parent motif
Relative to: not given
Reading: higher = stronger binding
Starting sequence: CCP110 docking peptide (human); EKVKRRLDLDIDG
Variant	normalised enrichment score
EKVARRLDLDIDG [K4A]	0.673
AKVKRRLDLDIDG [E1A]	0.517
EKVKRRLDADIDG [L9A]	0.0252
EKVKKRLDLDIDG [R5K]	-0.0326
EKVKARLDLDIDG [R5A]	0.121
EKVKRALDLDIDG [R6A]	0.377
EKVKRRLDLDIAG [D12A]	0.684

Block 3
Target: Interferon regulatory factor 3, full length, phosphomimetic (IRF3, Homo sapiens, UniProt Q14653, residues 1-427, S386D/S396D/S398D/S402D/T404D/S405D)
Method: protein-binding microarray
Molecule type: double-stranded DNA, one strand shown
Matrix: in vitro
Tested at: 2540 nM top
Notes: 60-bp whole probe
Together with: salmon DNA 0.4 mg/ml
Relative to: random background probes
Reading: higher = stronger binding
All sequences stand within: GCCTAGCAC … GTGCTAGGTCTTGATTCGCTTGACGCTGCTG
Residues (chain): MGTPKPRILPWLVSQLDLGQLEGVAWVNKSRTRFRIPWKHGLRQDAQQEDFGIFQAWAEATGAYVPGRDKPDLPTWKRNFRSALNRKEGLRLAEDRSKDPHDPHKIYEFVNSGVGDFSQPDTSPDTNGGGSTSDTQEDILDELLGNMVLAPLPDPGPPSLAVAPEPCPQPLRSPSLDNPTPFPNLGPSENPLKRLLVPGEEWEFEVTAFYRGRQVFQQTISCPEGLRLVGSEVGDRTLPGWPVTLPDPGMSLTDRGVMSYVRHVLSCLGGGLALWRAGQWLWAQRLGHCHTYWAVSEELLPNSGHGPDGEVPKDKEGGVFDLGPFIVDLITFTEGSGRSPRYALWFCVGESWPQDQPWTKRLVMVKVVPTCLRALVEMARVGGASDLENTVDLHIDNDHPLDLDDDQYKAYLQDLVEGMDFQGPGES
Oligonucleotide	fitted relative affinity
TACGAACTGAGTTTCGAGAC	1.32 z-score
CCAGGTTGGGAGGGGTAGGG	-0.0658 z-score
GTAGATTTCAGTATCGATTA	2.62 z-score
TTAGATCCCAGTCTCGATTA	1.16 z-score
AAGAGTTTCCCTCCCTGAGT	4.34 z-score
GACGGTCTCGGTCTCGGGCC	0.906 z-score
TTAAGTTTCGGTCTCGGTTA	9.37 z-score
AGACCTTGCTTTATGTGTAG	-0.34 z-score
GTAGGTATCGGTATCGGTTA	5.08 z-score

Further values, each from its own experiment
Substance	target	test	system	conditions	scale	measurement	result
PhoQ, residues 284 288 289 292 302 303 NLCILV	PhoP, residues 12 14 15 18 19 NFCKL (Escherichia coli, UniProt P23836)	Sort-seq, refers to: YFP reporter	E. coli	PhoQ-PhoP variant library, together with: 10 µM Mg2+	relative to: high Mg2+ state, higher = stronger signaling	fold induction	7.79

Some of these lines once more (block 1):
Variant	relative binding score
T17A	-0.219%
M176H	7.47%
